# Experimental data collected from several papers.
# Values joined by “and” are separate records of one study, mostly repeats; a detail may differ. Numbers after ± are the reported error.
# Kelch domain-containing protein 2: Kelch domain-containing protein 2 (UniProt Q9Y2U9)
# YAP1 WW1 domain: Transcriptional coactivator YAP1, WW1 domain (YAP1, Homo sapiens, UniProt P46937)
# YAP1 WW2 domain: Transcriptional coactivator YAP1, WW2 domain (YAP1, Homo sapiens, UniProt P46937)
# KCNT1: Potassium channel subfamily T member 1 (KCNT1, Homo sapiens, UniProt Q5JUK3)
# CFTR del508-508: Cystic fibrosis transmembrane conductance regulator (CFTR, Homo sapiens, UniProt P13569, del508-508)
# T1: miR-21 precursor (Homo sapiens); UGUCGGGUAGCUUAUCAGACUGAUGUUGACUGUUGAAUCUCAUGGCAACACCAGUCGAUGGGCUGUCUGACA
# T2: RNA hairpin, hairpin (Homo sapiens); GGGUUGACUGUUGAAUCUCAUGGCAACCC
# T3: DNA triplex, hexaethylene glycol linkers after 12, 24; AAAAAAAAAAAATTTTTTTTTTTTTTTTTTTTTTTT
Molecule,target,assay,system,conditions,scale,measurement,result
COC1=CC(c2cc3ccccc3[nH]2)=N/C1=C\c1[nH]c(C)cc1C,"T1, miR-21 precursor (Homo sapiens)",DSF,,"0-20 µM, NaCl 0.25 mM",,binding,binds
SDEGEVIVFGG,Kelch domain-containing protein 2,native mass spectrometry,"peptide, 200 mM ammonium acetate","20 µM Kelch domain-containing protein 2, pH 7",reference: total Kelch domain-containing protein 2 signal,fraction of protein bound,5.5%
CC(C)C[C@H](NC(=O)[C@@H](NC(=O)[C@@H](N)[C@@H](C)O)C(C)C)C(=O)N1CCC[C@H]1C(=O)N1CCC[C@H]1C(=O)N1CCC[C@H]1C(=O)N1CCC[C@H]1C(=O)N[C@@H](Cc1ccc(O)cc1)C(=O)N[C@@H](C)C(=O)N[C@@H](Cc1c[nH]cn1)C(=O)N[C@@H](CCCNC(=N)N)C(=O)N[C@@H](CC(N)=O)C(=O)O,YAP1 WW1 domain,"binding, ITC",,"pH 7.0, 25 °C, WW1 domain",,ΔG,-5.85 ± 0.14 kcal/mol
O=S(=O)(Sc1ccccc1F)c1ccccc1F,tubulin,"colchicine binding, [3H]colchicine binding",,"50 µM, 10 min, 37 °C, with: [3H]colchicine 5.0 µM",,inhibition,75 ± 5%
Nc1cc(COc2c(Cl)cc(C[C@H](N)C(=O)O)cc2Cl)c2oc(-c3ccccc3)nc2c1,"Large neutral amino acids transporter small subunit 1 (SLC7A5, Homo sapiens, UniProt Q01650)","leucine uptake, inhibitor",HEK293 expressing human LAT1,"20 µM, 30 min, read immediately after washout, with: L-[14C]leucine 1 µM",reference: untreated,remaining activity,~20%
ARRHSMGWAYKKKK,"Serine/threonine-protein kinase Nek2 (NEK2, Homo sapiens, UniProt P51955, T175A)",substrate,peptide,"Km of kinase, 1 h, 30 °C",reference: optimal peptide,phosphorylation,≤ 1%
CSCC[C@H](NC(=O)[C@@H]1CCCN1C(=O)[C@@H](NC(=O)[C@H](Cc1ccc(O)cc1)NC(=O)[C@H](C)NC(=O)[C@@H]1CCCN1C(=O)[C@@H]1CCCN1C(=O)[C@@H]1CCCN1C(=O)[C@H](CO)NC(=O)[C@H](Cc1c[nH]cn1)NC(=O)CN)[C@@H](C)O)C(=O)N[C@@H](CO)C(=O)O,YAP1 WW2 domain,"binding, ITC",,"pH 7.0, 25 °C, WW2 domain",,ΔG,-5.38 ± 0.08 kcal/mol
Cc1nnc2c(S(=O)(=O)N3CC(c4nc(-c5ccc(F)cc5)no4)C3)cccn12,KCNT1,"Tl+ flux, inhibitor",HEK293 expressing KCNT1,30 µM,,activity class,inactive
Nc1ncnc2c1ncn2[C@@H]1O[C@H](COP(=O)(O)OP(=O)(O)OP(=O)(O)O)[C@@H](O)[C@H]1O,"Sodium/potassium-transporting ATPase subunit alpha-1 (ATP1A1, Canis lupus familiaris, UniProt P50997)",dissociation from E1 state,dog,"4 °C, with: 45 mM Na+, NMG+ replacement, total 500 mM",,koff,0.69 ± 0.02 s⁻¹
Cc1ncsc1-c1ccc(CNC(=O)[C@@H]2C[C@@H](O)CN2C(=O)[C@@H](NC(=O)COCCOCCOCCOCCOc2cc3nccc(Nc4ccc5scnc5c4)c3cc2S(=O)(=O)C(C)(C)C)C(C)(C)C)cc1,"Receptor-interacting serine/threonine-protein kinase 2 (RIPK2, Homo sapiens, UniProt O43353)","degrader, immunoblot",THP-1,16 h,,hook effect onset,> 3 µM
CCN(CC)c1ccc2c(C)c(CCN3C(=O)NC4(CCN(c5nccn6ccnc56)CC4)C3=O)c(=O)oc2c1,human WIL-FL light chain dimer,"proteolysis, stabilizer, proteinase K digestion",,"10 µM, 2 h, 37 °C, 1% DMSO, with: proteinase K 50 nM",reference: vehicle,fold protection,> 0.99
IKPAKRMKFKTVCYLLVQLMHCRKMFKA,"Calmodulin-1 (Calm1, Rattus norvegicus, UniProt P0DP29, D21A/D57A)","Ca2+ dissociation, stopped-flow quin-2 fluorescence",peptide,"2 µM, pH 7.4, 22 °C, with: Ca2+-calmodulin complex",,koff1,5.17 s⁻¹ and 5.2 s⁻¹
IINFEKL,"Endoplasmic reticulum aminopeptidase 1 (ERAP1, Homo sapiens, UniProt Q9NZ08, V737R)",substrate,peptide,"pH 8.0, 27 °C, mutant V737R, with: L-AMC, peptide activator 100 µM",,Hill coefficient,1.4
CC(C)[C@H](NC(=O)[C@@H](N)[C@@H](C)O)C(=O)N[C@@H](C)C(=O)N1CCC[C@H]1C(=O)N1CCC[C@H]1C(=O)N1CCC[C@H]1C(=O)N1CCC[C@H]1C(=O)N[C@@H](Cc1ccc(O)cc1)C(=O)N[C@@H](CCCNC(=N)N)C(=O)N[C@@H](Cc1c[nH]cn1)C(=O)N[C@@H](CCCNC(=N)N)C(=O)N[C@@H](CC(N)=O)C(=O)O,YAP1 WW1 domain,"binding, ITC",,"pH 7.0, 25 °C, WW1 domain",,TΔS,-10.1 ± 0.78 kcal/mol
CN(C)c1cccc(Nc2nc3c(s2)CCCCc2nc(NC(=O)C(C)(C)C)sc2-3)c1,CFTR del508-508,"iodide influx, corrector, YFP halide quenching",FRT cells expressing YFP-H148Q/I152L,"16 to 20 h, 37 °C, genistein 50 µM, with: forskolin 20 µM",,Vmax,291 µM/s
GSRPQRLLWQTAVRHITEQRFIHGH,"Calmodulin-1 (Calm1, Rattus norvegicus, UniProt P0DP29)","Ca2+ dissociation, stopped-flow quin-2 fluorescence",peptide,"2 µM, pH 7.4, 22 °C, with: Ca2+-calmodulin complex",,koff1,4.9 s⁻¹ and 4.93 s⁻¹
CC[C@H](C)[C@H](NC(=O)[C@@H]1CCCN1C(=O)[C@@H]1CCCN1C(=O)[C@@H]1CCCN1C(=O)[C@@H](NC(=O)[C@H](CC(N)=O)NC(=O)[C@@H](N)Cc1ccccc1)[C@@H](C)CC)C(=O)N[C@@H](Cc1ccc(O)cc1)C(=O)N[C@H](C(=O)N[C@@H](CO)C(=O)N[C@@H](CCCNC(=N)N)C(=O)N[C@@H](C)C(=O)O)[C@@H](C)O,YAP1 WW1 domain,"binding, ITC",,"pH 7.0, 25 °C, WW1 domain",,TΔS,-0.74 ± 0.4 kcal/mol
Brc1ccc(SSc2ccc(Br)cc2)cc1,tubulin,"colchicine binding, [3H]colchicine binding",,"5 µM, 10 min, 37 °C, with: [3H]colchicine 5.0 µM",,inhibition,11 ± 0.3%
CC(C)C[C@H](NC(=O)[C@@H](NC(=O)[C@@H](N)[C@@H](C)O)C(C)C)C(=O)N1CCC[C@H]1C(=O)N1CCC[C@H]1C(=O)N1CCC[C@H]1C(=O)N1CCC[C@H]1C(=O)N[C@@H](Cc1ccc(O)cc1)C(=O)N[C@@H](CCCNC(=N)N)C(=O)N[C@@H](Cc1c[nH]cn1)C(=O)N[C@@H](CCCNC(=N)N)C(=O)N[C@@H](CC(N)=O)C(=O)O,YAP1 WW2 domain,"binding, ITC",,"pH 7.0, 25 °C, WW2 domain",,TΔS,-1.9 ± 0.58 kcal/mol
Cc1cc(C)c2cc(C#N)c(NCCCNC(=O)c3ccncc3)nc2c1,CFTR del508-508,"CFTR correction, corrector, iodide influx rate",FRT expressing YFP-H148Q/I152L,"up to 25 µM, 16-20 h, 37 °C, with: forskolin 20 µM, genistein 50 µM",,Vmax,61 µM/s
Nc1ccc(-c2nc([C@H]3CCc4cc(-c5cc(Cl)ccc5-n5cnnn5)cc(=O)n43)c(F)[nH]2)c(F)n1,"Coagulation factor XI (F11, Homo sapiens, UniProt P03951)",,"human, blood","oral, 250 mg once daily, fed, day 14, 24 h",,FXI activity inhibition,86 ± 5.3%
IINFEKE,"Endoplasmic reticulum aminopeptidase 1 (ERAP1, Homo sapiens, UniProt Q9NZ08, I681R)","L-AMC hydrolysis, activator",peptide,"100 µM, 5 min, pH 8.0, 27 °C, mutant I681R, with: L-AMC varied from 0 µM",,Vmax,234 ± 7 nmol/min/µg
Cc1ccc(C(=O)Nc2ccc3ccccc3c2)o1,"Otop1 (Mus musculus, UniProt Q80VM9, T233A)",whole-cell patch-clamp,,"concentration not given, pH 6.0",reference: wild type,effect on acid-evoked current,decreased
CCOc1ccccc1S(=O)(=O)N1CCC(c2nc(-c3ccc(F)cc3)no2)CC1,KCNT1,"ion current, activator, automated patch clamp",CHO,30 µM,reference: bepridil 60 µM,efficacy,100%
Oc1ccc(/C=C/c2cc3ccc4cccc5ccc(c2)c3c45)cc1O,"Transthyretin, fibrils (TTR, Homo sapiens, UniProt P02766)","binding, fluorescence emission",,"1 µM, pH 3.0, with: 5 µM fibrils (monomer)",reference: free compound,fluorescence increase,6.3 fold
GGGSGGG,Kelch domain-containing protein 2,native mass spectrometry,"peptide, 200 mM ammonium acetate","20 µM Kelch domain-containing protein 2, pH 7",reference: total Kelch domain-containing protein 2 signal,fraction of protein bound,4.5%
"Ac-ALKSENYADKVEFKDAKYEASALANEFADA-NH2 (N-acetyl, C-amide)","cGMP-dependent protein kinase 1, isoform alpha (PRKG1, Bos taurus, UniProt P00516)",surface plasmon resonance,peptide,"concentration not given, 7 min, 25 °C, immobilized peptide, 250 nM protein",,binding,no binding
Cc1cccnc1Nc1nc2c(s1)CCCc1nc(NC(=O)C(C)(C)C)sc1-2,CFTR del508-508,"iodide influx, corrector, YFP halide quenching",FRT cells expressing YFP-H148Q/I152L,"16 to 20 h, 37 °C, genistein 50 µM, with: forskolin 20 µM",,Vmax,509 µM/s
O=C(NCCc1ccc2c(c1)[C@H]1C[C@@H](N2)C(O)CO1)C(=O)NC1CCCC1 (stereo in doubt),"Peptidyl-prolyl cis-trans isomerase F, mitochondrial (PPIF, Homo sapiens, UniProt P30405, K175I)","binding, surface plasmon resonance",,,reference: fragment Kd over compound Kd,potency gain,> 1000 fold
COc1ccccc1C(=O)NCCCNc1nc2cc(C)cc(C)c2cc1C#N,CFTR del508-508,"ΔF508-CFTR correction, corrector",FRT,"up to 25 µM, 37 °C, with: forskolin 20 µM + genistein 50 µM",,EC50,inactive
OC(CNc1ccccc1)Cn1c2ccc(Br)cc2c2cc(Br)ccc21 (stereo not drawn),"T2, RNA hairpin, hairpin (Homo sapiens)",differential scanning fluorimetry,,"30 µM, with: RNA 2 µM",higher = more stabilisation,change in melting temperature,-5.5 °C
NC[C@H]1O[C@H](O[C@H]2[C@H](O[C@@H]3O[C@H](CO)[C@@H](O)[C@H]3O)[C@@H](O)[C@H](N)C[C@@H]2N)[C@H](N)[C@@H](O)[C@@H]1O,"T3, DNA triplex, hexaethylene glycol linkers after 12, 24",ITC,,"pH 6.8, KCl 150 mM",,binding,binds weakly
O=c1c(-c2ccc(O)cc2)coc2cc(O)cc(O)c12,"Cyclic nucleotide-gated channel alpha-1 (CNGA1, Bos taurus, UniProt Q00194)","ion current, inside-out patch clamp",Xenopus oocytes,"100 µM, closed channels, with: erbstatin 100 µM",,inhibition,~80%
Cc1ccc(S(=O)(=O)N2CC(c3nc(-c4ccsc4)no3)C2)cc1,KCNT1,"Tl+ flux, inhibitor",HEK293 expressing KCNT1,30 µM,,activity class,inactive
Nc1ncnc2c1ncn2[C@@H]1O[C@H](COP(=O)(O)OP(=O)(O)OP(=O)(O)O)[C@@H](O)[C@H]1O,"Histidine--tRNA ligase, cytoplasmic (HARS1, Homo sapiens, UniProt P12081, R362H)","thermal stability, DSF",,,,ΔTm,4.1 °C
Nc1ncnc2c1ncn2[C@@H]1O[C@H](COP(=O)(O)OP(=O)(O)OP(=O)(O)O)[C@@H](O)[C@H]1O,"Histidine--tRNA ligase, cytoplasmic (HARS1, Homo sapiens, UniProt P12081, S356N)","thermal stability, DSF",,,,ΔTm,2.25 °C
CCOc1ccccc1S(=O)(=O)N1CC(c2nc(-c3cccc(Cl)c3)no2)C1,KCNT1,"Tl+ flux, inhibitor",HEK293 expressing KCNT1,30 µM,,activity class,inactive
CC(C)C[C@H](NC(=O)[C@@H](NC(=O)[C@@H](N)[C@@H](C)O)C(C)C)C(=O)N[C@@H](C)C(=O)N1CCC[C@H]1C(=O)N1CCC[C@H]1C(=O)N1CCC[C@H]1C(=O)N[C@@H](Cc1ccc(O)cc1)C(=O)N[C@@H](CCCNC(=N)N)C(=O)N[C@@H](Cc1c[nH]cn1)C(=O)N[C@@H](CCCNC(=N)N)C(=O)N[C@@H](CC(N)=O)C(=O)O,YAP1 WW1 domain,"binding, ITC",,"pH 7.0, 25 °C, WW1 domain",,ΔH,-15.9 ± 0.71 kcal/mol
O=C(O)Cc1ccccc1Nc1c(Cl)cccc1Cl,"Degenerin mec-4 (mec-4, Caenorhabditis elegans, UniProt P24612, A713T)","ion current, two-electrode voltage clamp",Xenopus oocytes coexpressing MEC-2,"30 µM, -85 mV","reference: uninjected oocytes, positive inhibition, negative potentiation",current change,-2.78 µA
